Literature values, collected from citations in different studies.
Each line is one published result; not all experiments were run side by side. ± marks the error that the study gave. Values after ≈ are worked out from the molar mass of the structure shown.

`CN(C)CCCOc1cc(F)c(-c2c(Cl)nc3ncnn3c2NCC(C)(C)C)c(F)c1` — result for “acetylated α-tubulin level”: 5.98 ± 0.11 (HEK293; 1 µM, 4 h, unit not given; reference: vehicle (DMSO)).
The scaled Vmax of `C=CC(OS(=O)(=O)O)c1ccc(OC)cc1` (stereo not shown) is reported as 0.2 µmol/h/g liver (male rat, liver; sulfonation).
`C[C@@H](Nc1c(-c2c(F)cc(OCCCO)cc2F)c(Cl)nc2ncnn12)C(C)(C)C` — result for “acetylated α-tubulin level”: 9.17 ± 0.13 (HEK293; 1 µM, 4 h, unit not given; reference: vehicle (DMSO)).
`O=C(Nc1ccccc1-c1cccc(F)c1)c1nccnc1C(F)(F)F` gave an EC80 of 10 to 40 mg a.i./L (Botrytis cinerea; cucumber).
`C=CCC(=N)NCCC[C@H](N)C(=O)O` has a selectivity ratio of 25 fold (human nNOS; reference: human nNOS (cell lysate) over purified eNOS).
`CN(C)CCCOc1cc(F)c(-c2c(Cl)nc3ncnn3c2NCC2CCC2)c(F)c1`: “acetylated α-tubulin level” 0.37 ± 0.12 (HEK293; 10 µM, 4 h, unit not given; reference: vehicle (DMSO)).
For `O=C(Nc1ccccc1-c1cccc(Cl)c1)c1nccnc1C(F)(F)F`, the EC80 was 5 to 20 mg a.i./L (Botrytis cinerea; cucumber).
`CC(=O)NCCCOc1cc(F)c(-c2c(Cl)nc3ncnn3c2N[C@@H](C)C(F)(F)F)c(F)c1`: “acetylated α-tubulin level” 4.46 ± 0.68 (HEK293; 1 µM, 4 h, unit not given; reference: vehicle (DMSO)).
For `CC1CC(C)(C)c2cccc(NC(=O)c3nccnc3C(F)(F)F)c21` (stereo not shown), the EC80 was less than 1 mg a.i./L (Puccinia triticina; wheat).
`C/C=C/CNC(=N)NCCCCCCCCN1CCCCCCCCNC(=N)NC1=O` has an MIC50 of 5 µg/mL (≈ 11.5 µM) (Candida krusei).
Under “tumour growth inhibition”, `CC1=CCC23OC2(C)CCC2C(CN(C)C)C(=O)OC2C13.Cl` (stereo not shown) is recorded as 70% (sarcoma 180 tumour model; host not given; intraperitoneal and intratumoral, concentration not given).
With `CNC(=O)c1ccccc1Oc1nc(Nc2cc(OC)c(OC)c(OC)c2)ncc1Br` the inhibition was 80% (AMPK; 1 µM).
Under activity, `COc1ccc(S(=O)(=O)Nc2ccc(NS(=O)(=O)c3ccc(OC)cc3)c3ccccc23)cc1` is recorded as “active” (Nrf2; ARE luciferase reporter, activator; concentration not given).
The EC80 of `O=C(Nc1ccccc1-c1ccc(C(F)(F)F)c(F)c1)c1nccnc1C(F)(F)F` is reported as 0.5 to 2 mg a.i./L (Puccinia triticina; wheat).
Under “acetylated α-tubulin level”, `C[C@H](Nc1c(-c2c(F)cc(OCCCN)cc2F)c(Cl)nc2ncnn12)C(F)(F)F` is recorded as 17 ± 0.87 (HEK293; 1 µM, 4 h, unit not given; reference: vehicle (DMSO)).
For `O=C(Nc1ccccc1-c1ccc(Cl)cc1)c1nccnc1C(F)(F)F`, the EC80 was 5 to 20 mg a.i./L (Blumeria graminis; barley).
`O=C1NCCN1CC(O)Cn1c2ccc(F)cc2c2cc(F)ccc21` (stereo not shown) has an EC50 of 68.4 µM (DGC; cell viability).
For `CC(=O)N[C@H](CSSC[C@H](N)C(=O)O)C(=O)N[C@H](C)C(=O)N[C@H](CCCNC(=N)N)C(=O)N[C@H](CCCNC(=N)N)C(=O)N[C@H](CCCNC(=N)N)C(=O)N[C@H](C)C(=O)N[C@H](CCCNC(=N)N)C(N)=O`, ectopic calcification read “decreased” (5/6 nephrectomized rat; dose not given).
`C[C@@H](Nc1c(-c2c(F)cc(C#CCCN(C)C)cc2F)c(Cl)nc2ncnn12)C(C)(C)C` — result for “acetylated α-tubulin level”: 9.5 ± 0.34 (HEK293; 1 µM, 4 h, unit not given; reference: vehicle (DMSO)).
For `O=C(Nc1ccccc1-c1ccc(Br)cc1)c1nccnc1C(F)(F)F`, the EC80 was 20 to 100 mg a.i./L (Puccinia triticina; wheat).
`CC#N.Cc1ccc(O)c(CN(CCN(Cc2ccccn2)Cc2ccccn2)Cc2ccccn2)c1.[Mn+2]` — result for “water exchange rate constant”: 1.9e+07 s⁻¹ (pH 4.8, 298 K).
`CNCCCOc1cc(F)c(-c2c(Cl)nc3ncnn3c2NCC(F)(F)F)c(F)c1` — result for “total α-tubulin level”: 0.39 ± 0.02 (HEK293; 10 µM, 4 h, unit not given; reference: vehicle (DMSO)).
